Results pooled from the literature.
A part holds a random share of what one study measured.

Set 1
Target: RING finger protein unkempt homolog, zinc fingers 1-6, GST-SBP tag (UNK, Homo sapiens, UniProt Q9C0B0, residues 30-357)
Technique: RNA Bind-n-Seq
Form: RNA
Sample: in vitro
Tested at: not given
Notes: RNA with constant flanks, human-mouse chimeric sites, ends assumed
Baseline: input RNA pool
Reading: higher = stronger binding
Target sequence (chain): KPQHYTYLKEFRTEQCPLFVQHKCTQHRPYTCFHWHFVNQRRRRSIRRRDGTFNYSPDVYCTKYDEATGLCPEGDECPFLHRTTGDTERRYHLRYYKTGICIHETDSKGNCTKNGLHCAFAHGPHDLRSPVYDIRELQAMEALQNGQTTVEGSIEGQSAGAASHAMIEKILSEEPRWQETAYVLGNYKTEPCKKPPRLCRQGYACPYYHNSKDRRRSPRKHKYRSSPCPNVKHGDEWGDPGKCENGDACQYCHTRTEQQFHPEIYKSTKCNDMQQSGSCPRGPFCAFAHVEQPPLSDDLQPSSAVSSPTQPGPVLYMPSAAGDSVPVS
Strand	bound/input enrichment [ratio]
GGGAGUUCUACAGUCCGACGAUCUGGCGCCUGCGCUCCCCACUCGUGUUUGUAUUUUUAUUUUUAUAAGAUACAUGUAUUUACAAUUGAGCUUUUGUUACAUAAUGCUGAAAUGCUACUGGAGAUUAUGAAAAAAUGUUAAAUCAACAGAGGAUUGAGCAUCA	0.205
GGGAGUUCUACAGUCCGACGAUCGAGUCGAUUAUGGAAACAACAAUUCGUUAUCUUGCAGCCUCAGUGUUCACUUGCUUGGCGAUAGCAUUGGGGUUUUAUAGGUUCUGGAAGGAGAACUUUAAUGCUCACUGCCGCUGCUGCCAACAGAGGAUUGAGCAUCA	0.228
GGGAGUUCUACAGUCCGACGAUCCAACAGAGUCUAGGAUGGGUUCAUUACAUGAUUCAUGAGCCAGAACCACAUAUUCUUCUCUUUAGACGACCUCUUCCAAAAGAACAACAAAAAUGAAGUGCAGCUGGGAUCAUCUAAUCUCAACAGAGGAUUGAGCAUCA	0.299
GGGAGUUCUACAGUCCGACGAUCCUUAAUGUUAAUAUUUUUGAAUAAAUGUAAAACCAUGGUCUGCUUUUGGUACAACACGCAUUAAUAAAAGGUUAAGUUUUGUUUUCCACUGAAGUACUAUUUAACAUACAUCUCAGAAACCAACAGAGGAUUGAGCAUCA	0.195
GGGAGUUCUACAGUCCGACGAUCUUCAAAGAAAAGGGCAGCUGUGUCAUUUCAUAAGUAACUCUGGGGGAGGGAAAUUCUGUUCUUUUGUUUAAUUUUCCCCCAGAUAAAGCCAAAGUGUUUUUUAAGGAACUGAGAAAAAAUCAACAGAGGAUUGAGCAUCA	0.0877
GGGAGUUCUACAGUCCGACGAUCGAUCAUGAACCACCAUCCAGAAAUGAAAUGAGAUUACCCAGACGAGCCAAAACAGCUGCGCUACAGAAAAGUAAACUUAACCUUGCACCAAUUUCUCAUGAAGAUACAAGUUAAGAGAGCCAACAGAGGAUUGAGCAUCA	0.44
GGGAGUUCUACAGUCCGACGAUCACUCUUGACUCUUUCCAUUCUCGUCCCUUCCCUCUUGAUAUUCAAGGCCAUGAAUCCCAAAAUAACAGUCUUAGUGGCUAGCACCCACCCAAACUGAGAAUAAAUCCACCCCAGUGUCUCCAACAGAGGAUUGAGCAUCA	0.498
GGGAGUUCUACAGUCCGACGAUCACCUCCCCCUCCCGCCUCACCCCACCCCCGCUUUUUGGAAAGUUUUUGGCGUUUCUUUUCCUUCCCCAUACAAAGUGAUUACAGUUUAGAGUCUAUGUGGGGCUUGAAGGGCUUGACGGACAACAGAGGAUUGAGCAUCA	0.77
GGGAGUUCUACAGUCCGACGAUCUACAUUUUAUUGUUGAGUUUCAUUUUCAUAUAUUCUUGUAGUGUCUGCUUGCCUGUGACUUCUGGUAAAAUAAAAUAAGCCUUUGAAAAUAUUUUAGCAUGGUAUUUUUCUAAAAAUAAACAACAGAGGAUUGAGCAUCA	1.12
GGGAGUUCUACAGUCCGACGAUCCAACCUCAGAGCCCAGACUUCCUGGAUAUCACCAACCCUAAAGCGGUAUUAGAAAAUGCAUUGAGAAACUUCGCCUGUCUGACGACUGGAGAUGUGAUUGCUAUCAACUACAAUGAGAAGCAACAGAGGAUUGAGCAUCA	0.386
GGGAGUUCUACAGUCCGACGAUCCAGCGCCGAGGCCGCGGUUUCCCCCUGGGCCUCCCCAGCAGCAGCCAUGGGCAUCAAAUUUUUAGAAGUUAUCAAACCUUUCUGUGCAGUUCUACCAGAAAUUCAGAAACCGGAAAGGAACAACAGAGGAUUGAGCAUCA	2.31

Set 2
Target: RNA binding protein fox-1 homolog 2, RRM domain, GST-SBP tag (RBFOX2, Homo sapiens, UniProt O43251-10, residues 100-194)
Technique: RNA Bind-n-Seq
Form: RNA
Sample: in vitro
Tested at: 365 nM
Notes: natural RNA segment, single round, ends assumed
Baseline: no-protein control
Reading: higher = stronger binding
Residues (chain): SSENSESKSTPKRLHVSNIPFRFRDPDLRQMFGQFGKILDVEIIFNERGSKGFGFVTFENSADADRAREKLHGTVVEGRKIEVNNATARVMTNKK
Strand	RBNS enrichment (R)
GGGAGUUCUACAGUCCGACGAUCGGGAGGGGAGGGCACGUUCUUGACACAUGGGAACUUCGCUCAGGAGGGCCUCCCCUUCCCCUCUCCCUCAGAGUUUUCACUGCCGUCUCGUCUUUAGAAAGCUGUUUGAAUGGAAUUCUCGGGUGCCAA	0.293
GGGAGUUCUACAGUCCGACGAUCGCUCUAGUGCUGUAGGAACCAAGAGCCAGCCCCAGGUUCCCCGAGGCAGUAAAAAUCCAGCACAGGGGGCUGUGUCCCUAAGGCAAGCCCUGAUUACCUUUAAAAAAAACUGGAAUUCUCGGGUGCCAA	0.291
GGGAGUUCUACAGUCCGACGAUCAAUUCUUAGCAUAAUGACGGCCUUGGAUUGUCUGACCUCAGUAGCUAUUAAAUAACAUCGAGUAACAUCUGCAUCAGGCCCUCAGAAUAUACAGUUGAGUUGGGAGUAAAUGGAAUUCUCGGGUGCCAA	5.42
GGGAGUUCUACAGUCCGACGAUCAGCUAAGCCUCUCUUCAUCUGGAAGAAGAGGCAAGGGGGCAGGAGACCAGGCUCUAGCUCUGGGCCCUCCUUCAGCCCCCAUCAUGGGAAUAAAUUAAUUUUCUCAAUGUUGGAAUUCUCGGGUGCCAA	0.304
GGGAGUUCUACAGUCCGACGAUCAACUUUUAGGACGAGCACUUGGGAGUGUGAGGCCUUCCUGGCUGCUUCUAUGUAGUCCUACCACCUGCACAGAGGGGCUGGCAGGGCAGAAGUGUGACCUCAGUUAUAUAUGGAAUUCUCGGGUGCCAA	0.543
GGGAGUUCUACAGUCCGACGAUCCUGUCAAAAUAAUGUUAUGCUUUUGAAAGAUAAAGCCUGCUCAAUCUAGGGAUCCAGUUGUGCAGUAGAGUUCAGACUUCUCAUCCAAUCUUAUAUUGUAGGCAUUUCUCUGGAAUUCUCGGGUGCCAA	0.86
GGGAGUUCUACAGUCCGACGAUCCUCGAAACAUGUGCAUGGCGUCUGUACGUGGCAGGUGGCAGGUGGUGUUGGCAAUGGUCCUGGAGGGAAUGGCCUGGGCGUAGGCUGCCUCCAGCUGCCCGUAACCACCGUGGAAUUCUCGGGUGCCAA	2.38
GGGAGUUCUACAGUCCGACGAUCAAGACCUUUAAUGAUACUUAUGAUGCACUCAGUGCCAUACAAUAGUGUUUUAAGAAGCACAUGGCCUCAUUUUCCUUAGAAACAAGACAAAGCCUUUUUAAAAUGUUUUUUGGAAUUCUCGGGUGCCAA	0.732
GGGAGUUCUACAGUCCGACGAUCAAGCAGCUCCAGUCUCUGAUUUCCAUGGGUCACGUGCUGGGGAUGUGAUGAAGCCUGCAGUCUGCACUGUGUUGCUGAGCACAUGGAUUUCACCACUGGAACACAGGUGUUGGAAUUCUCGGGUGCCAA	13.7
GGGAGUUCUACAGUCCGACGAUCGAGACGUGAUUUCCGAUGCGCAUCUUCAGAGUCAAACACACCCUCCCUCGUGUACAACCAAAGAACAGGCAUUAUGAAAUUGUAUAGUAAUAUCUAGAAACACCACUUCCUGGAAUUCUCGGGUGCCAA	0.543
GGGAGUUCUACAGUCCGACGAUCAGGGACGAGUUUACGAUGGCUUGUGUAGUAAAGCGCACCCUUCGCCUGUCGCUACCUGGGGCUGUGGCAGCGGAAGUGUUUAGUGACAAGUGGGUCUGGGCAGCUUCCCCUGGAAUUCUCGGGUGCCAA	0.802
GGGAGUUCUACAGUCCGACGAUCGAAUAAAAUAUGUUGGUGGUAUUAACACCUCCAGUAAGAUAAGUCAUUGGUACGGUUUUUCUAAGGGCCGCAGUGAGAUGUAGCAGAAGAAAUAUGUUUAUUUUGGGCAAUGGAAUUCUCGGGUGCCAA	0.306

Set 3
Target: Sal-like protein 4, full length isoform A (SALL4, Homo sapiens, UniProt Q9UJQ4, residues 1-1053)
UniProt Q9UJQ4, sequence (whole entry, looked up): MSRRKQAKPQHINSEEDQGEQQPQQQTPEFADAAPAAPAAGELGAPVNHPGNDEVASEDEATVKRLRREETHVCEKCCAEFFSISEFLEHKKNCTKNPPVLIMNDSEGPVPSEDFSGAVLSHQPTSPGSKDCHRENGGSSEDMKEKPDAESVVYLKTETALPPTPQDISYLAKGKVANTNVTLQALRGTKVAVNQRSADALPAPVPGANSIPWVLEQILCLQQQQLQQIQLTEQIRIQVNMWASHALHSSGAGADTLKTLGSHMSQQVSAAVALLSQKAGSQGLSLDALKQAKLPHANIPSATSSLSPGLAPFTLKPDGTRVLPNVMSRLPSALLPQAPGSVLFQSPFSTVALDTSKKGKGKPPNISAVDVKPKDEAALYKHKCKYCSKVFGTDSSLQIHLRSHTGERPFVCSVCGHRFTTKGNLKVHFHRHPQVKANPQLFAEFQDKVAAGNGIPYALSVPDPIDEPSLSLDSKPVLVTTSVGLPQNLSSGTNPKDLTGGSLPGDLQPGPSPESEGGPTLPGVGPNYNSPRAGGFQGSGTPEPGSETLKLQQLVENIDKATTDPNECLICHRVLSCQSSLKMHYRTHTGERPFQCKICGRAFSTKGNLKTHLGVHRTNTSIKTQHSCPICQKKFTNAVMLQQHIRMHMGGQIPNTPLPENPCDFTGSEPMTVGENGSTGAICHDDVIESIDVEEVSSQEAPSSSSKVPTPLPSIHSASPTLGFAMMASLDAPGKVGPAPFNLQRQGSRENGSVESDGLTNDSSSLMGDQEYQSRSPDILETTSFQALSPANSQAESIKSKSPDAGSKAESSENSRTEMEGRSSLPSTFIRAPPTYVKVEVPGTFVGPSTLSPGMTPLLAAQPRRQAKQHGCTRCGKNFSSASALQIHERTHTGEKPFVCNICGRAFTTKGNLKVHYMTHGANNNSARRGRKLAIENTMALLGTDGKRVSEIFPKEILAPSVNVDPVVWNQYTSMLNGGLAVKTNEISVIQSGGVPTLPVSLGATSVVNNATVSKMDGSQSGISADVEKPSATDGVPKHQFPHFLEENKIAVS
Technique: universal PBM
Form: double-stranded DNA, one strand shown
Sample: in vitro
Tested at: 600 nM
Notes: 8-mer, flanks averaged, mean of replicates
Reading: higher = stronger binding
Strand	E-score
AAGTGACA	0.213
GCATATCA	0.236
GCTCCATA	-0.0926
TAAAGTTA	0.267
CCTAACAG	-0.0522
GTCTTCGA	-0.00769
CAGAGCGC	-0.325
GGGGTAAC	-0.172
CTCACATC	-0.00173
GAATAAGA	0.186
GAGACGGA	-0.187
AACTCCTT	0.159
GTGTAAGA	0.103
CTGACACC	-0.0605
CAGCGAAC	-0.183
GAAAATTC	0.14
CCGTATGC	-0.211
AACCGTGG	-0.196
ATCGCGAT	0.1
GTCCATAA	0.15
ATCCACCG	-0.209
GCGGTTAA	-0.134

Set 4
Target: Interferon regulatory factor 7, full length, phosphomimetic (IRF7, Homo sapiens, UniProt Q92985, residues 1-503, S101K/S471D/S472D/S475D/S476D/S477D/S483D/S484D/S487D)
UniProt Q92985, sequence (whole entry, unmodified, looked up): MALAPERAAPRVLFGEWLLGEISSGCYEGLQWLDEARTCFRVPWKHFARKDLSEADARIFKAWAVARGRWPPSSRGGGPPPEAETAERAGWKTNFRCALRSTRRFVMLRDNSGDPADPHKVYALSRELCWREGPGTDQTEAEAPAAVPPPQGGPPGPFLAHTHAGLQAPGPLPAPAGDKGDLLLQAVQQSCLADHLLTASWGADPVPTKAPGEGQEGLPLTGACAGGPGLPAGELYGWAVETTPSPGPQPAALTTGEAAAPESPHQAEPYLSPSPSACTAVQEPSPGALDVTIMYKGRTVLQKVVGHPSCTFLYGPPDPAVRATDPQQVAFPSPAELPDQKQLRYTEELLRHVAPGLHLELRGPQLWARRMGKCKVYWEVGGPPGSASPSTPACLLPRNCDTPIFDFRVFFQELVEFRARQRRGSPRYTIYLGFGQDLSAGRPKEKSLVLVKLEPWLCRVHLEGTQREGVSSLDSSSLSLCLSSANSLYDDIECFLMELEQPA
Technique: protein-binding microarray
Form: double-stranded DNA, one strand shown
Sample: in vitro
Tested at: 250 nM
Notes: 60-bp whole probe
Together with: salmon DNA 0.4 mg/ml
Baseline: random background probes
Reading: higher = stronger binding
All sequences stand within: GCCTAGCAC … GTCTTGATTCGCTTGACGCTGCTG
Strand	log fluorescence
GACGGACTGCTTTTCCTGACGTGCTAG	-0.0306 z-score
GACGATTTCAGACTGGAGTCGTGCTAG	0.134 z-score
TTAGATCTCGGACTGGGTTAGTGCTAG	0.105 z-score
GACGGTATCGGTCTCGGGCCGTGCTAG	0.24 z-score
CTAGATATCGGGTATCGATTAGTGCTA	1.25 z-score
GACGGTATCGATCTCGGGACGTGCTAG	0.69 z-score
TCATCTGTCCCTCTGTGACTGTGCTAG	0.16 z-score
GACAGTATCGACTATCGGGACGTGCTA	-0.243 z-score
ATGTTTTGAGTTTTCCTTCAGTGCTAG	1.74 z-score
GACGATTTCGGGTTTCGAGACGTGCTA	4.37 z-score
GACGATATCGGGACTGAAGACGTGCTA	-0.0705 z-score
TTAGGACTAGGGTATCGGTTAGTGCTA	1.21 z-score
TTATGTTTCGGGTTTCGGTTAGTGCTA	9.78 z-score
GACGGTTCCGGTTTCGGGGCGTGCTAG	5.86 z-score
AAGTTTTTCATTTTTTTTCAGTGCTAG	0.854 z-score
GACGGTACCGGGACTGGGGACGTGCTA	-0.558 z-score
GAAGGTATCCTTTTCCTGACGTGCTAG	1.31 z-score
TTAGATAACAGACTGGATTAGTGCTAG	-0.143 z-score

Excerpt of the above (set 3):
Strand	E-score
ATCCACCG	-0.209
GGGGTAAC	-0.172
AAGTGACA	0.213
CAGCGAAC	-0.183
GTGTAAGA	0.103
AACTCCTT	0.159
